Measurements from different studies.
Every numbered part comes from another study and shows a few of its results, in no order.

Block 1 — method: protein-binding microarray; molecule type: double-stranded DNA, one strand shown; sample: in vitro; concentration: 940 nM top; notes: 60-bp whole probe; with: salmon DNA 0.4 mg/ml; baseline: random background probes; direction: higher = stronger binding; constant ends, left off below: GCCTAGCAC … GTCTTGATTCGCTTGACGCTGCTG
Target: Interferon regulatory factor 5, full length, phosphomimetic (IRF5, Homo sapiens, UniProt Q13568-2, residues 1-514, S451D/S453D/S456D/S462D)
Under “fitted relative affinity”, `TTAGGACTGGGGACTGCGTTAGTGCTA` is recorded as -0.279 z-score.
For `CTCTTCTTGCATCTGGGTATGTGCTAG`, “fitted relative affinity” read 0.461 z-score.
`TTAGGTTTCGGTGCCGGTTAGTGCTAG` — result for “fitted relative affinity”: 13.4 z-score.
Under “fitted relative affinity”, `TCACCTTTATATACCTGACTGTGCTAG` is recorded as 1.24 z-score.
Under “fitted relative affinity”, `TTAAGTTTCGGGTTTCGGTTAGTGCTA` is recorded as 11.1 z-score.

Block 2 — method: aptamer microarray, sandwich; molecule type: DNA with 2'F-ANA; sample: in vitro; concentration: 200 nM; with: Cy3 exosite-II aptamer, 400 nM; direction: higher = stronger binding; strand: GGTTGGTGTGGTTGG
Target: Prothrombin, mature alpha-thrombin (F2, Homo sapiens, UniProt P00734)
Notes: whole 15-mer aptamer, many near background
For `2'F-ANA at 2 4 6 7 11 12 13`, “mean fluorescence intensity” read 336 a.u.
`2'F-ANA at 2 5 6 7 8 10 14` — result for “mean fluorescence intensity”: 52.7 a.u.
`2'F-ANA at 10 12 13 14 15`: “mean fluorescence intensity” 137 a.u.
`2'F-ANA at 3 6 12 14` — result for “mean fluorescence intensity”: 694 a.u.
For `2'F-ANA at 2 3 4 5 6 7 8 11 12 13 14 15`, “mean fluorescence intensity” read 54.8 a.u.

Block 3 — method: competition protein-binding microarray; molecule type: double-stranded DNA, one strand shown; sample: in vitro; concentration: 2 µM; with: Cbf1 competitor, 0.05 µM; direction: higher = stronger binding; constant ends, left off below: … GTCTTGATTCGCTTGACGCTGCTG
Target: Phosphate system positive regulatory protein PHO4, full length, GST-tagged (PHO4, Saccharomyces cerevisiae, UniProt P07270, residues 1-312)
Notes: whole 60-bp probe, lowest competitor level
Target sequence (chain): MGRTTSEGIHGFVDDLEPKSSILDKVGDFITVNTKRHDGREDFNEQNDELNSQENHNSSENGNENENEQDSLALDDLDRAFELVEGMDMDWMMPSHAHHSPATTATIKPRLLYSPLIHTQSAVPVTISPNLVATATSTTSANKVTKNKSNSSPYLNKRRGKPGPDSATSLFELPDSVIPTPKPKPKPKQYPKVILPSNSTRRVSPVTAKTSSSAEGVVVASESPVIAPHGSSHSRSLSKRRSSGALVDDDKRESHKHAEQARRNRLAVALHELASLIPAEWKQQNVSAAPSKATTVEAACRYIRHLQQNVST
With `CATACCCAACCTTGGCCGGTGGGTGAAGATATTTGT` the fluorescence intensity was 3800 a.u.
With `GCCCTCGGCGGGGGCCACGTGGCTCTCAGGCGCCTG` the fluorescence intensity was 16300 a.u.
For `TATCTAGGATGCTGCACCGTGGCAACATTCCCCTCG`, the fluorescence intensity was 7070 a.u.
The fluorescence intensity of `GTCCCCTAAGTTCTTCACGTGTTCCCTTCTCATCGC` is reported as 13500 a.u.
`CTTTCCCGATCTTTTCACGTGCCCTTAGCACATTTG` has a fluorescence intensity of 13700 a.u.
`CTTTCCCGATCTTGCGATGTGGGTGTAGCACATTTG` gave a fluorescence intensity of 5240 a.u.
For `CATACCCAACCTTGTCACATTACTTAAGATATTTGT`, the fluorescence intensity was 4520 a.u.
`CTTCTGTAAATTTGCATTGTGGGTGGACGCGCCCCG` gave a fluorescence intensity of 5100 a.u.
The fluorescence intensity of `AAATTACTAAGTTGAGCAGTGGGTGACGCCGTATGA` is reported as 3930 a.u.

Further values, each from its own experiment
For `PhoQ, residues 284 288 289 292 302 303 SMMNNA`, the fold induction was 18 (PhoP, residues 12 14 15 18 19 LQHIR (Escherichia coli, UniProt P23836); Sort-seq, refers to: YFP reporter; E. coli; PhoQ-PhoP variant library, with: 10 µM Mg2+; baseline: high Mg2+ state, higher = stronger signaling).

For quick reference, copied from above (further values, each from its own experiment):
For `PhoQ, residues 284 288 289 292 302 303 SMMNNA`, the fold induction was 18 (PhoP, residues 12 14 15 18 19 LQHIR (Escherichia coli, UniProt P23836); Sort-seq, refers to: YFP reporter; E. coli; PhoQ-PhoP variant library, with: 10 µM Mg2+; baseline: high Mg2+ state, higher = stronger signaling).
